# Published values gathered from unrelated publications.
# Each numbered part is a random draw from the data of one study; scales do not carry over between parts.

# Study 1 — method: protein binding microarray; molecule type: double-stranded DNA, one strand shown; sample: in vitro; tested at: not given; reference: not given; reading: higher = stronger binding
# Target: Histone acetyltransferase KAT6A, winged helix 1, GST fusion (KAT6A, Homo sapiens, UniProt Q92794, residues 1-85)
# Notes: 8-mer, flanks averaged, mean of 2 arrays, mostly near background
# Target sequence (chain): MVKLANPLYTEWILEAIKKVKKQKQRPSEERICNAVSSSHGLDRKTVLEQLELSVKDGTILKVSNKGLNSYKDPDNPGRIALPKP
Oligonucleotide,E-score
CAAAGTCC,-0.117
CGTACTTA,0.13
GAATCAAC,-0.0491
ATGAGAGG,-0.279

# Study 2 — method: protein-binding microarray; molecule type: double-stranded DNA, one strand shown; sample: in vitro; tested at: 0.8 µM; notes: whole 60-bp probe, no competitor; reading: higher = stronger binding
# Target: Centromere-binding protein 1, full length, N-terminal tag (CBF1, Saccharomyces cerevisiae, UniProt P17106, residues 1-351)
# Sequence of UniProt P17106 (whole entry, looked up): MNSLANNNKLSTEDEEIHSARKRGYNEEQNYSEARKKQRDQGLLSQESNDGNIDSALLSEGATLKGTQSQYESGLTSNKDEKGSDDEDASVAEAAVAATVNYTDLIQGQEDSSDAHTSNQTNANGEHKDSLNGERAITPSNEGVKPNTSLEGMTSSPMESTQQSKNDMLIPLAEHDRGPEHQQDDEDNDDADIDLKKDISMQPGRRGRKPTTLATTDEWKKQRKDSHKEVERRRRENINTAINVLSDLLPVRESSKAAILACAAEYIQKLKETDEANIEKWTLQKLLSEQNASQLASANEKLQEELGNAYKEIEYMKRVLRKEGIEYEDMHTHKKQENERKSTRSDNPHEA
Oligonucleotide,fluorescence intensity [a.u.]
CTAACTCAGGTCCAGAACGTGACACATCTTTGCTTCGTCTTGATTCGCTTGACGCTGCTG,1830
CTACCCGTGTAAAAAAAGGTGATGAAGCAAACATTCGTCTTGATTCGCTTGACGCTGCTG,574
GAAGTTTAGGAGTTACGCGTGCTACATTACTGTTAGGTCTTGATTCGCTTGACGCTGCTG,560
CCTAACTACTATATCATCGTGTAATAGCTTCGTACAGTCTTGATTCGCTTGACGCTGCTG,530

# Study 3 — method: protein-binding microarray; molecule type: double-stranded DNA, one strand shown; sample: in vitro; tested at: 940 nM top; notes: 60-bp whole probe; with: salmon DNA 0.4 mg/ml; reference: random background probes; reading: higher = stronger binding
# Target: Interferon regulatory factor 5, full length, phosphomimetic (IRF5, Homo sapiens, UniProt Q13568-2, residues 1-514, S451D/S453D/S456D/S462D)
Oligonucleotide,fitted relative affinity
GCCTAGCACTCAAGACTCATAATGGCACTGTGCTAGGTCTTGATTCGCTTGACGCTGCTG,-0.474 z-score
GCCTAGCACGACGGTTTCCTTATCCTGCCGTGCTAGGTCTTGATTCGCTTGACGCTGCTG,1.3 z-score
GCCTAGCACTTAGGTATCCGGACTGGGTTAGTGCTAGTCTTGATTCGCTTGACGCTGCTG,-0.176 z-score
GCCTAGCACTGTAGAGTAGCTTTCTGAGGGTGCTAGGTCTTGATTCGCTTGACGCTGCTG,-0.618 z-score

# Other studies, line by line
Substance,target,assay,system,setting,how to read,measurement,result
"PhoQ, residues 284 288 289 292 302 303 MLMVEA","PhoP, residues 12 14 15 18 19 DLLYY (Escherichia coli, UniProt P23836)","Sort-seq, refers to: YFP reporter",E. coli,"PhoQ-PhoP variant library, with: 10 µM Mg2+","reference: high Mg2+ state, higher = stronger signaling",fold induction,1.27

# Repeated from above (study 2):
Oligonucleotide,fluorescence intensity [a.u.]
CTACCCGTGTAAAAAAAGGTGATGAAGCAAACATTCGTCTTGATTCGCTTGACGCTGCTG,574
